Results pooled from the literature.
Each line is one published result; not all experiments were run side by side. “And” joins repeats or separate records; there may be more than shown. Numbers after ± are the reported error.
Chain of UniProt P11309 (whole entry, looked up): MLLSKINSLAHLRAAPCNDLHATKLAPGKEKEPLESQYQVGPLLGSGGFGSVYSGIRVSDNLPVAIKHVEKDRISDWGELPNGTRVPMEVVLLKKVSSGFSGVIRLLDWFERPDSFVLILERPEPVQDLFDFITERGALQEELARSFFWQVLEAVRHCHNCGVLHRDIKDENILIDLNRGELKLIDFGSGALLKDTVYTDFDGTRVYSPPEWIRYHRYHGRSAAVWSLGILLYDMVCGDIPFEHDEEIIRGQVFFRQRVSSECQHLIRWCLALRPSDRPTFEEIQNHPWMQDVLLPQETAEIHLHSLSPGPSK
Chain of UniProt P16234 (whole entry, unmodified, looked up): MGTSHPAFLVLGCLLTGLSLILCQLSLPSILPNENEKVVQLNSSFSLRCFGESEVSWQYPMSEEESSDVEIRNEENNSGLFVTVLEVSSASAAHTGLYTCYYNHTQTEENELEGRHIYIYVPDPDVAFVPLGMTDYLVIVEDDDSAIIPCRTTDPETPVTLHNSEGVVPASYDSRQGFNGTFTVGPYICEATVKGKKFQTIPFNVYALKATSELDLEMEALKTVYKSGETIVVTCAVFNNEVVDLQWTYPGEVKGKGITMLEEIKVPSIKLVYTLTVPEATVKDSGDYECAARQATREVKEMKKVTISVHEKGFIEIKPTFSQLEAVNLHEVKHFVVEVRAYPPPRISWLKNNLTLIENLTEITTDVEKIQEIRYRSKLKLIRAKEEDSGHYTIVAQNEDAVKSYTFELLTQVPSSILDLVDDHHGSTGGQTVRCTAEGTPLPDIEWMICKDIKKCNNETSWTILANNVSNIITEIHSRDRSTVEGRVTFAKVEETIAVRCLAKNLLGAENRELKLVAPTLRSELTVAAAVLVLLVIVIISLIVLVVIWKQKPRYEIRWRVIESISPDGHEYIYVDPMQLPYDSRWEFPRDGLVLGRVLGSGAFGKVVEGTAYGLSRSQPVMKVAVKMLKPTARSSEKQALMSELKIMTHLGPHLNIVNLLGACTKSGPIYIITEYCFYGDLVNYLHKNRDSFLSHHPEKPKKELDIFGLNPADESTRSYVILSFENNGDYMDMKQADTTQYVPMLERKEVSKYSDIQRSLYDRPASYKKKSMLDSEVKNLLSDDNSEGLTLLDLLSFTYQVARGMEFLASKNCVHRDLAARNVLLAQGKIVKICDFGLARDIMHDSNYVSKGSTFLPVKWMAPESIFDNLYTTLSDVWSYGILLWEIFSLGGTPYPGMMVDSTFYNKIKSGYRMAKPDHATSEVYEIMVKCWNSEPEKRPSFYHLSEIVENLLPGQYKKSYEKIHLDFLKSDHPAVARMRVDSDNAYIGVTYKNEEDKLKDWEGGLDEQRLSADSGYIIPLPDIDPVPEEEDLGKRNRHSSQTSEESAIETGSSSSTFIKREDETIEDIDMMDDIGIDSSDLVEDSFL
Chain of UniProt P21709 (whole entry, looked up): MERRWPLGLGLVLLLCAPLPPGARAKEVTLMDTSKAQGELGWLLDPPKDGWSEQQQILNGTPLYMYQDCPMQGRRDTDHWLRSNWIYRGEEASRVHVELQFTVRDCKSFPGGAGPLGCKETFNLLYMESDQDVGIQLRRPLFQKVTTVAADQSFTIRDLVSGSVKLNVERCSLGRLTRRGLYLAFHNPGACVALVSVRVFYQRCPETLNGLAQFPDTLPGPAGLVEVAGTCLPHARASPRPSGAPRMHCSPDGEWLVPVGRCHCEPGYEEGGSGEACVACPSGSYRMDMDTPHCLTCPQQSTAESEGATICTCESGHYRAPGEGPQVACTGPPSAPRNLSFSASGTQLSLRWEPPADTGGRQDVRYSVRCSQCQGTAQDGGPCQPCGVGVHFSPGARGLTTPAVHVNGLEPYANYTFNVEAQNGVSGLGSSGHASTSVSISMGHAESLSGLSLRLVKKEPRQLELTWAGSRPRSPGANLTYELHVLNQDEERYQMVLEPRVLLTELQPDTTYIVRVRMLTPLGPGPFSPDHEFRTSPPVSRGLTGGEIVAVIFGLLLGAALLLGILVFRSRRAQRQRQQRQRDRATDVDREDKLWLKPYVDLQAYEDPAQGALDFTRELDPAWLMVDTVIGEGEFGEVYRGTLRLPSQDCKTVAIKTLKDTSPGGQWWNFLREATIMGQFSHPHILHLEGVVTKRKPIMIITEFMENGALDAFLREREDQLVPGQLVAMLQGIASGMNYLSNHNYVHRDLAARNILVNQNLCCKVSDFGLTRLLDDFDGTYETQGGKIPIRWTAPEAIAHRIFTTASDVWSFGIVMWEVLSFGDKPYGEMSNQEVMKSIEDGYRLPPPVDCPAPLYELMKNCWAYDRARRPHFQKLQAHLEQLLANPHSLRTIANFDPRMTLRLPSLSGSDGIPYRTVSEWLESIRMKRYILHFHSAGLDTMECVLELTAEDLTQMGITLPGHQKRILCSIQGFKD

CC[C@H](C)[C@H](NC(=O)[C@H](C)NC(=O)CNC(=O)[C@H](Cc1ccccc1)NC(=O)[C@H](CC(N)=O)NC(=O)[C@H](CC(N)=O)NC(=O)[C@H](CO[C@@H]1O[C@H](CO)[C@@H](O)[C@H](O)[C@H]1NC(C)=O)NC(=O)[C@H](CO)NC(=O)[C@H](Cc1c[nH]cn1)NC(=O)[C@@H](NC(=O)[C@H](CC(C)C)NC(=O)[C@H](Cc1ccccc1)NC(=O)[C@H](CC(N)=O)NC(=O)[C@H](C)NC(=O)[C@@H](N)CC(C)C)C(C)C)C(=O)N[C@@H](CC(C)C)C(N)=O
IAPP cytotoxicity (INS-1; MTT; concentration not given, 24 h, together with: 1 µM hIAPP): decreased

CNC(=O)C[C@H](Cc1ccncc1)NC(=O)[C@@H](Cc1cccc(Br)c1)NC(=O)[C@@H](N)Cc1cccc(F)c1
viability (Huh-7-ACE2; CellTiter-Glo; 0.000381 µM, 48 h, unit not given; relative to: DMSO): 0.962 and 0.899 and 1.03

CC(C)(C)C(=O)OCOP(=O)(OCOC(=O)C(C)(C)C)C1CCCN(O)C1=O (stereo not drawn)
Log10TGI (LOX IMVI): -4.91 log M

CS(C)(=O)=Nc1ccc(-c2ccc(-c3nc4cc(O[C@@H]5CO[C@H]6[C@@H]5OC[C@H]6O)[nH]c4cc3F)cc2)cc1
inhibition (Serine/threonine-protein kinase pim-1 (PIM1, Homo sapiens, UniProt P11309); enzyme activity, inhibitor; 10 µM): 2%

COc1ccc(CCNC2CCCc3c2[nH]c2ccc(C)cc32)cc1 (stereo not drawn)
non-viable cells (A549; 50 µM, 23 h): 2.2 ± 2.5%

O=C1NC2(CC2)COc2ncc(F)cc2[C@H]2COCCN2c2ccn3ncc1c3n2
organ-to-brain weight ratio (Sprague-Dawley rat, male, testes; oral, 5 mg/kg/day, 4 weeks, end of treatment): 150 ± 6.91%

CC(C)[C@H]1NC(=O)C[C@H]2/C=C/CCSSC[C@@H](NC1=O)C(=O)N[C@H](Cc1cccc3ccccc13)C(=O)NCC(=O)O2
inhibition (Platelet-derived growth factor receptor alpha (PDGFRA, Homo sapiens, UniProt P16234, V561D); enzyme activity, inhibitor; 10 µM): 8.4%

O=C(c1cccc(-c2ccc3ncnc(Nc4ccc(OCc5cccc(F)c5)c(Cl)c4)c3c2)c1)N1CCOCC1
TC50 (NIH 3T3; PrestoBlue; 96 h): 5.1 µM

C#Cc1ccc(C[C@H]2C(=O)N[C@@H](CC(C)C)C(=O)N(C)[C@@H](C)C(=O)N[C@@H](CC(C)C)C(=O)N(C)[C@H](CC(C)C)C(=O)N(C)[C@@H](Cc3ccccc3)C(=O)N[C@@H](CC(C)C)C(=O)N(C)[C@@H](C)C(=O)N[C@@H](CC(C)C)C(=O)N(C)[C@H](CC(C)C)C(=O)N2C)cc1
Papp A→B (LLC-PK1; Caco-2): 0.02 ×10⁻⁶ cm/s

CNC(=O)CC1CN(C(=O)c2ccc(C(F)(F)F)cn2)CCN1C(=O)c1cccnn1 (stereo not drawn)
viability (Huh-7-ACE2; CellTiter-Glo; 0.000381 µM, 48 h, unit not given; relative to: DMSO): 1.12 and 0.994 and 0.969

COc1ccc(-c2cnc3c(C#Cc4cccnc4)snc3c2)cc1OC
CC90 (human cells; 48 (unit not given)): > 10 µM

C[C@@H]1O[C@@H](O[C@@H]2[C@@H](O)[C@H](O)[C@@H](CO)O[C@H]2c2c(O)cc(O)c3c(=O)cc(-c4ccc(O)cc4)oc23)[C@H](O)[C@H](O)[C@H]1O
viability (Caco-2; CCK-8; 1.25 µM, 24 h): 106%

Fc1cccc(COc2ccc(Nc3ncnc4ccc(-c5cccc(N6CCNCC6)c5)cc34)cc2Cl)c1
TC50 (NIH 3T3; PrestoBlue; 96 h): 19 µM

CC(C)C[C@@H]1NC(=O)[C@H](CCC2CCCCC2)NC(=O)[C@H](CC(C)C)NC(=O)[C@H](C(C)C)NC(=O)[C@]2(C)CCCN2C(=O)[C@H](C(C)C)NC(=O)[C@H](Cc2ccccc2)NC(=O)CSCCNC(=O)[C@H](C(C)(C)O)NC1=O
Papp A→B (LLC-PK1; Caco-2): 0.19 ×10⁻⁶ cm/s

CNC(=O)C[C@H](Cc1ccc(F)cc1)NC(=O)[C@@H](Cc1ccc(Cl)cc1Cl)NC(=O)[C@H](N)Cc1ccccc1C#N
viability (Huh-7-ACE2; CellTiter-Glo; 12.5 µM, 48 h, unit not given; relative to: DMSO): 1.01 and 0.969

COc1ccccc1-c1n[nH]c2nc(NC3CCN(C(=O)Cc4ccc(F)cc4F)CC3)ncc12
relative abundance (bead binding, competition bead pull-down, refers to: LINJ.05.0380; Leishmania donovani axenic amastigote extract; 10 µM; relative to: vehicle): 1.1

Cc1cc(-c2ccc3ccccc3c2)nnc1NCCN1CCN(C)CC1
Papp B-A (Caco-2; 5 µM, 0.5 h, together with: valspodar 1.0 µM): 16.3 ×10⁻⁶ cm/s

CC(=O)NCC(=O)N[C@@H](Cc1ccccc1)C(=O)N[C@@H](Cc1ccccc1)C(=O)N[C@@H](Cc1ccc(O)cc1)C(=O)NCC(=O)N[C@@H](Cc1ccc(O)cc1)C(=O)NCC(=O)N[C@@H](CO)C(=O)N[C@@H](CO)C(=O)N[C@@H](CO)C(=O)N[C@@H](CCCNC(=N)N)C(=O)N[C@@H](CCCNC(=N)N)C(=O)N[C@@H](C)C(=O)N1CCC[C@H]1C(=O)N[C@@H](CCC(N)=O)C(=O)N[C@H](C(=O)O)[C@@H](C)O
cytotoxicity (mouse dermal papilla cells; CCK-8; 1 to 400 µM, 48 h): not toxic

C#Cc1ccc(C[C@@H]2NC(=O)CSCCNC(=O)[C@H](C(C)(C)O)NC(=O)[C@H](CC(C)C)NC(=O)[C@H](CCC3CCCCC3)NC(=O)[C@H](CC(C)C)NC(=O)[C@H](C(C)C)NC(=O)[C@]3(C)CCCN3C(=O)[C@H](C(C)C)NC2=O)cc1
Papp A→B (LLC-PK1; Caco-2): 0.05 ×10⁻⁶ cm/s

CN1CCN(S(=O)(=O)c2ccc(-c3ccc4ncnc(Nc5ccc(Cl)cc5)c4c3)cc2)CC1
TC50 (NIH 3T3; PrestoBlue; 96 h): 29 µM

CC(C)C[C@H](N)C(=O)N[C@@H](Cc1c[nH]c2ccccc12)C(=O)N[C@@H](CCCNC(=N)N)C(=O)N[C@@H](CCCNC(=N)N)C(=O)N[C@@H](Cc1c[nH]c2ccccc12)C(=O)N[C@@H](CCCNC(=N)N)C(=O)N[C@@H](Cc1c[nH]c2ccccc12)C(=O)N[C@@H](Cc1c[nH]c2ccccc12)C(=O)N[C@@H](Cc1c[nH]c2ccccc12)C(=O)O
lowest hemolytic concentration (human red blood cells; 1 h, 37 °C, 10% hemolysis): > 256 µg/mL

COc1ccccc1-c1n[nH]c2nc(N[C@H]3CC[C@H](NS(=O)(=O)CC(C)C)CC3)ncc12
relative abundance (bead binding, competition bead pull-down, refers to: LINJ.34.0070; Leishmania donovani extract; 10 µM; relative to: vehicle): 0.96

c1ccc(CCNC2CCCc3c2[nH]c2ccc(-c4ccccc4)cc32)cc1 (stereo not drawn)
non-viable cells (A549; 50 µM, 23 h): 84.2 ± 10.5%

C#Cc1ccc(C[C@H]2C(=O)N[C@@H](CC(C)C)C(=O)N(C)[C@@H](CC(C)C)C(=O)NCC(=O)N3CCC[C@@H]3C(=O)N(C)[C@@H](Cc3ccccc3)C(=O)N[C@@H](CC(C)C)C(=O)N(C)[C@@H](C)C(=O)N[C@@H](CC(C)C)C(=O)N3CCC[C@@H]3C(=O)N2C)cc1
Papp A→B (LLC-PK1; Caco-2): 6.84 ×10⁻⁶ cm/s

CC(=O)NCC(=O)N[C@@H](CCCNC(=N)N)C(=O)N[C@@H](CCCCN)C(=O)N[C@@H](CCCCN)C(=O)N[C@@H](CCCNC(=N)N)C(=O)N[C@@H](CCCNC(=N)N)C(=O)N[C@@H](CCC(N)=O)C(=O)N[C@@H](CCCNC(=N)N)C(=O)N[C@@H](CCCNC(=N)N)C(=O)N[C@@H](CCCNC(=N)N)C(=O)N1CCC[C@H]1C(=O)N[C@@H](CCC(N)=O)C(N)=O
peptide concentration (HEK293T cells; LC-MS; nuclear fraction; 20 µM, 24 h): 177 pmol/mg protein and 132 pmol/mg protein and 203 pmol/mg protein

CCOc1ccc(CN2CC[C@H]2C(=O)NC)cc1-c1cccc(C(=O)NC[C@@H]2COC(C)(C)O2)c1
viability (Huh-7-ACE2; CellTiter-Glo; 0.000191 µM, 48 h, unit not given; relative to: DMSO): 1.01 and 0.99 and 1.09

CC(=O)O[C@H]1OC[C@@H]2C=C([C@@]3(C)CCCC(C)(C)C3)CC[C@H]12
viability decrease (primary human T lymphocytes; MTT; 0.1 µM, 48 h, 10% FBS): 15 to 25%

CNC(=O)CC[C@H](Cc1ccccc1)NC(=O)[C@@H](Cc1ccc(Cl)cc1Cl)NC(=O)[C@H](N)Cc1ccccc1[N+](=O)[O-]
viability (Huh-7-ACE2; CellTiter-Glo; 0.0244 µM, 48 h, unit not given; relative to: DMSO): 0.976 and 0.967 and 1.04

C/C=C(/C)C(=O)OC[C@H]1[C@@H](Cc2ccc(OC)c(OC)c2)CO[C@@H]1c1ccc(OC)c(OC)c1
LDH release (rat aortic VSMCs; 30 µM, 24.5 h): 3.1 ± 0.7%

Nc1nc2ccc(Oc3ccc4nc(N)sc4c3)cc2s1
cytotoxicity (A549; XTT; 250 µM, 20 h, 10% FBS): 30%

Cc1ccc2[nH]c3c(c2c1)CCCC3NCCCc1ccccc1 (stereo not drawn)
non-viable cells (A549; 50 µM, 23 h): 4.8 ± 4.2%

CN(C)CCCNC(=O)[C@@H]1NC(=O)[C@@H]2Cc3ccc(cc3)Oc3cc4cc(c3O)-c3ccc5c(c[nH]c5c3)C[C@@H](NC(=O)C(NC(=O)CCCCCN)c3ccc(O)cc3)C(=O)N[C@H](c3ccc(O)cc3)C(=O)N[C@H]4C(=O)N[C@@H](C(=O)N2C)c2ccc(cc2)Oc2cc1ccc2O (stereo partly drawn)
hemolysis (human red blood cells; PBS; 8 µg/mL, 1 h, pH 7.4, 37 °C): 2.84%

CNC(=O)C[C@H](Cc1ccncc1)NC(=O)[C@@H](Cc1cccc(Br)c1)NC(=O)[C@@H](N)Cc1ccsc1
viability (Huh-7-ACE2; CellTiter-Glo; 0.0122 µM, 48 h, unit not given; relative to: DMSO): 0.928 and 1.1 and 0.894

CN(C)[C@H]1C[C@@]23CC[C@@]4(O2)C(=CC[C@]2(C)[C@@H](c5ccc6ccncc6c5)CC[C@H]24)C=C3[C@@H](O)[C@@H]1O
inhibition (Ephrin type-A receptor 1 (EPHA1, Homo sapiens, UniProt P21709); ATP probe labelling, inhibitor, KiNativ profiling; 1 µM): 5.8%

N=C(N)NCCC[C@H](NC(=O)[C@H](CCCNC(=N)N)NC(=O)[C@H](CCCNC(=N)N)NC(=O)[C@H](CCC(N)=O)NC(=O)[C@H](CCCNC(=N)N)NC(=O)[C@H](CCCNC(=N)N)NC(=O)[C@H](CCCCN)NC(=O)[C@H](CCCCN)NC(=O)[C@H](CCCNC(=N)N)NC(=O)CNC(=O)[C@H](Cc1ccc(O)cc1)NC(=O)[C@H](Cc1ccccc1)NC(=O)[C@H](Cc1ccccc1)NC(=O)[C@H](Cc1ccccc1)NC(=O)OCC1c2ccccc2-c2ccccc21)C(=O)O
cellular internalization (RAW264.7; flow cytometry; FITC-labelled compound, together with: amiloride 3 mM, 1 h pretreatment; relative to: control): decreased

CCCO[C@H]1[C@H](O)[C@@H](N)[C@@H](O[C@H]2[C@H](O[C@@H]3O[C@H](CO)[C@@H](O[C@H]4O[C@@H](CN)[C@@H](O)[C@H](O)[C@H]4N)[C@H]3O)[C@@H](O)[C@H](N)C[C@@H]2N)O[C@@H]1CO
25% lethal concentration (NIH 3T3; 72 h, 10% fetal bovine serum): > 1200 µM

A few entries again:
CN1CCN(S(=O)(=O)c2ccc(-c3ccc4ncnc(Nc5ccc(Cl)cc5)c4c3)cc2)CC1
TC50 (NIH 3T3; PrestoBlue; 96 h): 29 µM

CC(C)C[C@H](N)C(=O)N[C@@H](Cc1c[nH]c2ccccc12)C(=O)N[C@@H](CCCNC(=N)N)C(=O)N[C@@H](CCCNC(=N)N)C(=O)N[C@@H](Cc1c[nH]c2ccccc12)C(=O)N[C@@H](CCCNC(=N)N)C(=O)N[C@@H](Cc1c[nH]c2ccccc12)C(=O)N[C@@H](Cc1c[nH]c2ccccc12)C(=O)N[C@@H](Cc1c[nH]c2ccccc12)C(=O)O
lowest hemolytic concentration (human red blood cells; 1 h, 37 °C, 10% hemolysis): > 256 µg/mL

COc1ccccc1-c1n[nH]c2nc(N[C@H]3CC[C@H](NS(=O)(=O)CC(C)C)CC3)ncc12
relative abundance (bead binding, competition bead pull-down, refers to: LINJ.34.0070; Leishmania donovani extract; 10 µM; relative to: vehicle): 0.96

c1ccc(CCNC2CCCc3c2[nH]c2ccc(-c4ccccc4)cc32)cc1 (stereo not drawn)
non-viable cells (A549; 50 µM, 23 h): 84.2 ± 10.5%

C#Cc1ccc(C[C@H]2C(=O)N[C@@H](CC(C)C)C(=O)N(C)[C@@H](CC(C)C)C(=O)NCC(=O)N3CCC[C@@H]3C(=O)N(C)[C@@H](Cc3ccccc3)C(=O)N[C@@H](CC(C)C)C(=O)N(C)[C@@H](C)C(=O)N[C@@H](CC(C)C)C(=O)N3CCC[C@@H]3C(=O)N2C)cc1
Papp A→B (LLC-PK1; Caco-2): 6.84 ×10⁻⁶ cm/s
